Assay results gathered from unrelated publications.
Every numbered part comes from another study and shows a few of its results, in no order.

Sample 1 — method: protein binding microarray; form: double-stranded DNA, one strand shown; medium: in vitro; tested at: not given; baseline: not given; reading: higher = stronger binding
Target: Histone acetyltransferase KAT6A, both winged helices, GST fusion (KAT6A, Homo sapiens, UniProt Q92794, residues 1-181)
Notes: 8-mer, flanks averaged, mean of 2 arrays, mostly near background
Residues (chain): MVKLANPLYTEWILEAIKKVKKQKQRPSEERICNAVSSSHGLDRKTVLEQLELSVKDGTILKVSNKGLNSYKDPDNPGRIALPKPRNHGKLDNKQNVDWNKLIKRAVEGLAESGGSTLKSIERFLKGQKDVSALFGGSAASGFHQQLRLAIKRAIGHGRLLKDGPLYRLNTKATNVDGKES
Sequence | E-score
CGCGGTAC | 0.371
AGTTTTGG | -0.147
CTATTAAA | -0.181
CCTACTTC | -0.155
CAGGCCTA | -0.122
ATAGACAC | -0.136
CCCGTGCG | 0.311
AAAAGAGA | -0.139
CCATCAGA | -0.0642
GGGAGCCC | -0.0249
CAGACGCC | 0.0295
CGGTATGC | 0.189
AAGGCCGC | 0.223
CGTCAACG | 0.136
CTCGAATC | -0.218
CGCGGTCC | 0.366
CGGACCAA | 0.119
AATCGAGC | -0.129
AGCGGGCC | 0.239
ATTAAAAC | 0.0148
AACGAACC | 0.00814
GCGGAGGA | 0.0954

Sample 2 — method: protein-binding microarray; form: double-stranded DNA, one strand shown; medium: in vitro; tested at: 250 nM; notes: 60-bp whole probe; added: salmon DNA 0.4 mg/ml; baseline: random background probes; reading: higher = stronger binding; shared flanks, not repeated: GCCTAGCAC … GTCTTGATTCGCTTGACGCTGCTG
Target: Interferon regulatory factor 7, full length, phosphomimetic (IRF7, Homo sapiens, UniProt Q92985, residues 1-503, S101K/S471D/S472D/S475D/S476D/S477D/S483D/S484D/S487D)
Construct (chain): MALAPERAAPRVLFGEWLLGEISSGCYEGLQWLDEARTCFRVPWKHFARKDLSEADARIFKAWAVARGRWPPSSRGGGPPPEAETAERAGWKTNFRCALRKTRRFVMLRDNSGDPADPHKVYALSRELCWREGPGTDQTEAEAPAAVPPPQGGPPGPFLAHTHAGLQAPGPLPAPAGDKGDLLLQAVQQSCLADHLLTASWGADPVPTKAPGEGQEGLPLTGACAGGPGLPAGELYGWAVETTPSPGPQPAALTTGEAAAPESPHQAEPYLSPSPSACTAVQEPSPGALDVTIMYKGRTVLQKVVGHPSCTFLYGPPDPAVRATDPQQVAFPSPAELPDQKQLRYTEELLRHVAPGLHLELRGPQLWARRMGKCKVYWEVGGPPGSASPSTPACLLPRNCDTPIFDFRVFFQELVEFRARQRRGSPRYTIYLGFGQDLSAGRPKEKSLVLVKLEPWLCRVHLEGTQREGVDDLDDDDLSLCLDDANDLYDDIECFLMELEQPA
Sequence | log fluorescence [z-score]
GACGGTATCCTTTTCATGACGTGCTAG | 0.641
GACAATCTCAGTCTCGAGACGTGCTAG | 0.548
GACGGTATCGGGTATCGGGACGTGCTA | 0.607
TTAGGACAGGACACTGGGTTAGTGCTA | -0.462
TTAGGCCTCGGACTGGGTTAGTGCTAG | 0.187
CAGCTTCTAATATTCATTTTGTGCTAG | 0.626
GACGGACTGGACAATCGGGACGTGCTA | -0.749
TTAGGACTGGGGACTGGTTTAGTGCTA | 0.0192
GACGATTTCGGTTTCGGGACGTGCTAG | 7.28
TTAGAACTGGGGTTTCTATTAGTGCTA | 0.914
CAAGGAACTCAGAGATTTAAGTGCTAG | -0.309
GATGATTCCAGTTTCGAGACGTGCTAG | 4.52
TTCCAAATGCCCTCTCCATACGTGCTA | 0.0663
TCAGAACTGGGGACTGGATTAGTGCTA | -0.438
GACGGTATCGGGTATCGGGAAGTGCTA | 0.402
TTAGGTTTCGGGTAGCGGTTAGTGCTA | 7.69
GACGGTTTCGGGTTGCGGGACGTGCTA | 12.9
TTCCTTATTGCTTCCTCTTTGTGCTAG | 1.85
TCATTTTTCTAGTCCAGACTGTGCTAG | 1.42

Sample 3 — method: RNA Bind-n-Seq; form: RNA; medium: in vitro; tested at: 365 nM; baseline: no-protein control; reading: higher = stronger binding
Target: RNA binding protein fox-1 homolog 2, RRM domain, GST-SBP tag (RBFOX2, Homo sapiens, UniProt O43251-10, residues 100-194)
Notes: natural RNA segment, single round, ends assumed
Residues (chain): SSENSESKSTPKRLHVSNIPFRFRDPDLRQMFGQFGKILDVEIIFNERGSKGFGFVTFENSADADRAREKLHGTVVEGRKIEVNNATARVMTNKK
Sequence | RBNS enrichment (R)
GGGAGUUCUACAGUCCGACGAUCUGGGAAGCUUGAGGGUUCCCUUCUUAGGACCAGCGGGUGGUUUGUGAAAUGCUUAGCUGGUUAGCAUCCGAGGUGAGGGUCUGAAGGAGUCUCUCUGUCUUCUUCUUUCUUGGAAUUCUCGGGUGCCAA | 0.466
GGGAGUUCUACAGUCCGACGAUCAGACAUCACAUACCUUCAGCACUUCUCACAAUGUAACUGCUUUAGUCAUAUUAACCUGAAGUUGCAGUUUAGACACAUGUUGUUGGGGUGUCUUUCUGGUGCCCAAACUUUGGAAUUCUCGGGUGCCAA | 0.264
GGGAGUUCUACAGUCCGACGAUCAUGUUUUGUUUCCUUUCCUUUGUUUUUUCUUUUAACUGGAAUAAUUACCAUUGAAAAAGAAGUUCCUUUGAGCAUGUAUGUGUCUGCCUCUAGGAUGAGCUCAGAGCGAGUGGAAUUCUCGGGUGCCAA | 1.14
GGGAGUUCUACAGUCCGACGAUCCUGUCUCAGGCCUCAAGCCAGGCACCCAUCUCUGGAUGCCAGUCUAUAGCGGGUACCAGAGGAAAGCUGGCAGCAGUAACUCUCUCCCCAUGCAUCCUAGCCAGUGAGUGUGGAAUUCUCGGGUGCCAA | 0.306
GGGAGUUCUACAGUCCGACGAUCCCAAAGAUCUUUUUGUUUUGGCUUUAGUAUCAUAUGUGCUUUUUCUGUAUCCUGAGCGCUCUAUAUGAUCAUGUUAAUUUAAAGCUUUAUACACAUUGUUGUUUUUGCUGUGGAAUUCUCGGGUGCCAA | 0.472
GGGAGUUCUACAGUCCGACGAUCGGCAGCCCCAUCGAGCUGGACUGACUGGCCAGGCCACGUGGAGACACCACGGUCGACGACGGCUGGAGGGACGUUUCAGAGGCGAGUCCUGGGUGGCUCCUCGCCUUGGGUGGAAUUCUCGGGUGCCAA | 0.528
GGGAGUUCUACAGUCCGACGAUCGUGGCUCUGGGUACCUGCAAGCAGAACUUCCAAAGAGAGUUAAAAGCAGCAGCCCCGGCAACUCUGGCUCCAGGCAGAAGGAGAGGCCCGGUGCAGCUGAGGUUCCCGACUGGAAUUCUCGGGUGCCAA | 1.33
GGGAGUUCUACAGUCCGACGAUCGUAGUCCUGUGGAGGAGGAGGGUCCUCCCAGGAGGACCUGUGUGUUCUUUCAAAGCCUUAGAGUGGCGCUACACCGGCCAGCUGGCUUAGCUGCAGGAAGGCCUCUUAGCUGGAAUUCUCGGGUGCCAA | 0.401

Sample 4 — method: RNA Bind-n-Seq; form: RNA; medium: in vitro; tested at: not given; baseline: input RNA pool; reading: higher = stronger binding
Target: RING finger protein unkempt homolog, zinc fingers 1-6, GST-SBP tag (UNK, Homo sapiens, UniProt Q9C0B0, residues 30-357)
Notes: RNA with constant flanks, human and mouse sites, ends assumed
Construct (chain): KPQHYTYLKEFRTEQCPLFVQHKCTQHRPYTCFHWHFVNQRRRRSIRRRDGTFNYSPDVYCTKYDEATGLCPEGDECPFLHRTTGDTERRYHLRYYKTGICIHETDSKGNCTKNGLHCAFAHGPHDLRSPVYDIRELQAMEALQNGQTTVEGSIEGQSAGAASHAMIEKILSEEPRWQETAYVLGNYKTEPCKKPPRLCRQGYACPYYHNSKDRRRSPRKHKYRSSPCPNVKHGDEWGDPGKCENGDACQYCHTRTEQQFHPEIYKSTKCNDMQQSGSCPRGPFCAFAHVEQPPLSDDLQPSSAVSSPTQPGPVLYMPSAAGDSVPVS
Sequence | bound/input enrichment
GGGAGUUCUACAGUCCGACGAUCAUAGAGAGAACCCUUCAAAUUCAGAAAGCUCAUGGUGACCACAUGGCUUCCUCUAGAAAUAAUUCUGUAUCUGGACUAUCAGUCAAAUCAAAAAAUAAUACCAAACAAAAGCUUCCUGUGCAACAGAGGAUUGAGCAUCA | 1.37 ratio
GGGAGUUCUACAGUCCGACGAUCAGAUUGGCAUCAGCGCGGACACUGUAUGAGGUUUCCCUCCAGGAGUCAAUCCGAUACGCCCCUGGGGAUGCAGUGGAGAAGUGGCUGAAUGACUUGCUGUGCCUGGAUUGCCUCAACAUCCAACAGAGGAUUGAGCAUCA | 0.0549 ratio
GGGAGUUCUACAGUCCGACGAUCAAGCUUUUGAUGUUGAAUGUUUCUAAAUAUUUAAUGGUUUCUUUAAUUUCUUAUGCUAGCAAAAAAAAAACUUCAUAGGAAUUUGUAUUACCAGUAAAAAUUUUUUUUAGGAUGUUGCAUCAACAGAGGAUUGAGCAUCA | 1.1 ratio
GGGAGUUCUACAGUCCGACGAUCACAAUUUAUGAGAUUAUUGAUAAUUCUCAAGGAUUCUACGUUUGUCCAGUGGAGCCCCAAAAUAGAAGCAAGAUGAAUAUUCCAUUCCGCAUUGGCAAUGCCAAAGGAGAUGAUGCUUUACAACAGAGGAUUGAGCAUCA | 2.86 ratio
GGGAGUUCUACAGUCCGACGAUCGCCAUCCAGGAGCGUGUGGCCCAGGGCCAGACUGGAAACUUCUUGUUUUUUGGCUGCCGCUGGCGGGACCAAGACUUCUACUGGGAGGCUGAGUGGCAGGAGCUGGAGAAGCGGGACUGUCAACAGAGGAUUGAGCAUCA | 0.246 ratio
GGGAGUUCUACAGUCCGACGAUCACUUGGUUCAACCUGCAGGCUCGAAAACGCAAGUACUUUAAAAAGCAUGAGAAACGAAUGUCGAAGGAUGAAGAAAGGGCAGUCAAAGACGAGCUGCUCAGUGAGAAGCCCGAAAUCAAGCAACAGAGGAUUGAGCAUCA | 0.131 ratio
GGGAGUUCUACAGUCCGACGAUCUUCUCUCGAGUUGAAGAAGACUAUCUCUGGAGGAUAAAACAACUAGGAUCACACUCUCCAGUAGCUCUUCUGAAUACACUGUUCUACUUUAACACUAAGUAUUUUGGCCUGAAAACAGUGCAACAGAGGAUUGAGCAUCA | 0.4 ratio
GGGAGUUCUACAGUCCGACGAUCAGCCUCAAGUUCUCCAGCUCUGGGGACUUCCUGGUGGCUGGGGUAGGGCAGGAGCACAGGCUUGGCCGAUGGUGGAGAAUCAAAGAGGCUCGGAAUUCUGUCUGCAUCAUCCCACUCCGCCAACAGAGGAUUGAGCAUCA | 0.132 ratio

For quick reference, copied from above (sample 1):
Sequence | E-score
AATCGAGC | -0.129
CAGGCCTA | -0.122
AAGGCCGC | 0.223
CCATCAGA | -0.0642
AACGAACC | 0.00814
CCCGTGCG | 0.311
